Measurements pooled from the literature.
Compare with care: the assays were run in different laboratories. “And” joins repeats or separate records; there may be more than shown. ± gives the spread as reported.
VCP: Transitional endoplasmic reticulum ATPase (VCP, Homo sapiens, UniProt P55072)
Sequence of UniProt P55072 (whole entry, looked up): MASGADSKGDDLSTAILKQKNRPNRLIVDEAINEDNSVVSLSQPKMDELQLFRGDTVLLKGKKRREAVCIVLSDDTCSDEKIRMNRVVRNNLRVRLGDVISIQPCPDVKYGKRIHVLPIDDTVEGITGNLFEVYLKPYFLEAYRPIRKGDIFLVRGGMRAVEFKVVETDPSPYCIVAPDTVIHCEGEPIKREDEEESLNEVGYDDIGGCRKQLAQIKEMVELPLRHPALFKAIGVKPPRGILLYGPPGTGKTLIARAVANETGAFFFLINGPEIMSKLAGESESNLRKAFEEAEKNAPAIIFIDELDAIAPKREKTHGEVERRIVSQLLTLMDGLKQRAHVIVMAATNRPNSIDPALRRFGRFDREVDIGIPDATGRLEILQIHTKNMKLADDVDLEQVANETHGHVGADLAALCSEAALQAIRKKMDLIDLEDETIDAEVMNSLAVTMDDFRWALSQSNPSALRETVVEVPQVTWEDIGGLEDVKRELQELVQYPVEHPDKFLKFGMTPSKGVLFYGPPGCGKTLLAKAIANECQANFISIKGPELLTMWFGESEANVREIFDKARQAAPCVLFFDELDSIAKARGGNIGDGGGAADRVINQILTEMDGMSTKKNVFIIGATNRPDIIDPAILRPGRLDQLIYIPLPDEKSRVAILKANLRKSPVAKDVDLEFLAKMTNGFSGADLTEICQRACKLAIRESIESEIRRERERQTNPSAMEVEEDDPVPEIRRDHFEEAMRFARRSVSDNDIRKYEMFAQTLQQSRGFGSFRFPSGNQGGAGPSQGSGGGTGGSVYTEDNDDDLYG
17-beta-hydroxysteroid dehydrogenase 13: 17-beta-hydroxysteroid dehydrogenase 13 (Homo sapiens, UniProt Q7Z5P4)
Sequence of UniProt Q7Z5P4 (whole entry, looked up): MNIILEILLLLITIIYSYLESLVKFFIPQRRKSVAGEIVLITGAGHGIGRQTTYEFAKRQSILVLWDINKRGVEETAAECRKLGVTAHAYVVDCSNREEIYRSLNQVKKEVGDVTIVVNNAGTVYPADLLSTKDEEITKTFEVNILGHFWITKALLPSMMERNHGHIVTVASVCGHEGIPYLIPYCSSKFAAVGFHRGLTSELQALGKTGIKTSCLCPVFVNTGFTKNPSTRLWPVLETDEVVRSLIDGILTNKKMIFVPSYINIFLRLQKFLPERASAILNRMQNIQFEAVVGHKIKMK
IRAK4: Interleukin-1 receptor-associated kinase 4 (IRAK4, Homo sapiens, UniProt Q9NWZ3)
Sequence of UniProt Q9NWZ3 (whole entry, looked up): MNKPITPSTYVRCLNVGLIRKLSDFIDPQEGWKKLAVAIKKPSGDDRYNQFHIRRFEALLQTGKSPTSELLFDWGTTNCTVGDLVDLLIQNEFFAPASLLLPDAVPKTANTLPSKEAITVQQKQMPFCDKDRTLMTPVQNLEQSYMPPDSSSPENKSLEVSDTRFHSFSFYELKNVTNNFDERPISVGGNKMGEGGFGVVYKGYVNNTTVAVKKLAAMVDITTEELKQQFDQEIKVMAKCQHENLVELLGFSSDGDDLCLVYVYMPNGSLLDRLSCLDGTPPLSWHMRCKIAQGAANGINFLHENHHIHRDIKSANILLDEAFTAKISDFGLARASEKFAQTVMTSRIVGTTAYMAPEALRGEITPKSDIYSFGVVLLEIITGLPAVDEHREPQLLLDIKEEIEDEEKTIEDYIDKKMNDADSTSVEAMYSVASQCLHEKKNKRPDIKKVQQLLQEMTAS
FER: Tyrosine-protein kinase Fer (FER, Homo sapiens, UniProt P16591)
Sequence of UniProt P16591 (whole entry, looked up): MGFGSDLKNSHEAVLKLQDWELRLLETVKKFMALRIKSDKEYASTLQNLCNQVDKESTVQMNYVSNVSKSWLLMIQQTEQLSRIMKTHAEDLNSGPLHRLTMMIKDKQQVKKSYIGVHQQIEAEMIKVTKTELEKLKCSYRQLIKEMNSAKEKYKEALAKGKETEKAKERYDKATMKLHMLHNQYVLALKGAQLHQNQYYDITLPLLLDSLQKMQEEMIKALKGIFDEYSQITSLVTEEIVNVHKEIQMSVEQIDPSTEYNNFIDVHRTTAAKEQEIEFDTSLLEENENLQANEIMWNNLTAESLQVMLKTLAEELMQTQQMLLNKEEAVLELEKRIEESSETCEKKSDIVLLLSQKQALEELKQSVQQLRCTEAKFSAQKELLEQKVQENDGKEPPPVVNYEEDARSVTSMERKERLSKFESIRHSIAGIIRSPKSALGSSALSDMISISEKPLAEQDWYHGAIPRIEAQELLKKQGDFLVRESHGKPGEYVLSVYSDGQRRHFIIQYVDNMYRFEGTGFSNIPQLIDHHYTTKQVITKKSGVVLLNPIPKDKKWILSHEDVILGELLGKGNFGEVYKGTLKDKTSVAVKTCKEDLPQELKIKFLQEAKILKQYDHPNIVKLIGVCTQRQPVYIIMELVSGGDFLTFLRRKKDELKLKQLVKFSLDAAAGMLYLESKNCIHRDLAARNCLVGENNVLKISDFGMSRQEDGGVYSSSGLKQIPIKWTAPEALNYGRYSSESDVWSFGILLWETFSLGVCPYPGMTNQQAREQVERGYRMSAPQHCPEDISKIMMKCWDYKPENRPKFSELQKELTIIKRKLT
PRKD3: Serine/threonine-protein kinase D3 (PRKD3, Homo sapiens, UniProt O94806)
Sequence of UniProt Q91XE4 (whole entry, looked up): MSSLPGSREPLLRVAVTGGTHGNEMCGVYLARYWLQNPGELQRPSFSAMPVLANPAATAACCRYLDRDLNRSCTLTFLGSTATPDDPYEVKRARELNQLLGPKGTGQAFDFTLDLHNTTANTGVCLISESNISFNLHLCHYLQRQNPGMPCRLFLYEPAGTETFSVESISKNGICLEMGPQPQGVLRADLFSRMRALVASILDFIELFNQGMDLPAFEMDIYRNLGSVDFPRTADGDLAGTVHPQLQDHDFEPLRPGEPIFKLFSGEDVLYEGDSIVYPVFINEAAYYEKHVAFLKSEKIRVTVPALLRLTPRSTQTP
Sequence of UniProt P28223 (whole entry, looked up): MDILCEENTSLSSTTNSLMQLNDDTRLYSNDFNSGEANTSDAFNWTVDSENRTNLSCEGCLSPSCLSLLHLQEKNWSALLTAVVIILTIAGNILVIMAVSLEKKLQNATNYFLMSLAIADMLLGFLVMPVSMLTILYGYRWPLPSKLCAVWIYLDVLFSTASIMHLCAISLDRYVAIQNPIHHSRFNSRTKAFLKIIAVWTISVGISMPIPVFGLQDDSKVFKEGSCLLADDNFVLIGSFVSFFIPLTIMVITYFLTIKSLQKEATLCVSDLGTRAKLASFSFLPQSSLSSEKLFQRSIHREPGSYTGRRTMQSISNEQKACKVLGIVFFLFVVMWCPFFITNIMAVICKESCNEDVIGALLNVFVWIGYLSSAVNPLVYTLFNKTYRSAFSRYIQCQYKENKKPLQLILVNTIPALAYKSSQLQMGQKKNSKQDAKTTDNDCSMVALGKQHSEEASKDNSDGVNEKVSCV
Sequence of UniProt Q9R1P1 (whole entry, looked up): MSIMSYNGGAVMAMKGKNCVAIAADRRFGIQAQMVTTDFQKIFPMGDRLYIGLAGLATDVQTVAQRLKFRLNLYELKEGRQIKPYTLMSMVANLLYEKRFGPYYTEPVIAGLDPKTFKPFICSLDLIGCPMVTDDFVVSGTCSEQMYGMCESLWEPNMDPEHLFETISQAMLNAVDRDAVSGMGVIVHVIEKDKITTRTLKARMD
Sequence of UniProt P37173 (whole entry, looked up): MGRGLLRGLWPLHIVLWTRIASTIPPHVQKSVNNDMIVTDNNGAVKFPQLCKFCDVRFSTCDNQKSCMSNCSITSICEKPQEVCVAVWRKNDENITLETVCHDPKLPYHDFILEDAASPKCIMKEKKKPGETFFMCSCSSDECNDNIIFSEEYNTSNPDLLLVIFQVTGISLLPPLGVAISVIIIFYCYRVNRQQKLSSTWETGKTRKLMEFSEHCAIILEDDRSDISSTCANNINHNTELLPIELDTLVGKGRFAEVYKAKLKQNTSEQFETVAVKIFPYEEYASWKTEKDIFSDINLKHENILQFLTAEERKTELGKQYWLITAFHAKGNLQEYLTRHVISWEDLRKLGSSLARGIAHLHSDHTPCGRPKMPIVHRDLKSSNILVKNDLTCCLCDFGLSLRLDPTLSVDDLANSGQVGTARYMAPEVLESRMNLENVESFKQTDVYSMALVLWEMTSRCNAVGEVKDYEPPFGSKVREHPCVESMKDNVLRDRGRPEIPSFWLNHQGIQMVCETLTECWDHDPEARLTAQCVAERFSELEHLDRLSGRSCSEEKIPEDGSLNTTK
Sequence of UniProt P28300 (whole entry, looked up): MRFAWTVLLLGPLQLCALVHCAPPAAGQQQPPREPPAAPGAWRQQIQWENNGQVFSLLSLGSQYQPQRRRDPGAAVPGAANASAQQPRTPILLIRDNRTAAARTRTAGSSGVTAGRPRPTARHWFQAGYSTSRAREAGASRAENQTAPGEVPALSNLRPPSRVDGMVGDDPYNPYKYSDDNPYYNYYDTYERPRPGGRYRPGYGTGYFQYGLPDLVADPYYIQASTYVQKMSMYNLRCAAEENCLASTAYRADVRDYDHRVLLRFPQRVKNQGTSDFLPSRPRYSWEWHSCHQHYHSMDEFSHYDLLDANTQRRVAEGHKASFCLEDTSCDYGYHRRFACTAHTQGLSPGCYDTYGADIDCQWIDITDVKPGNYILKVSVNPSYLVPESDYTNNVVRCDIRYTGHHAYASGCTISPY
Sequence of UniProt Q6B856 (whole entry, looked up): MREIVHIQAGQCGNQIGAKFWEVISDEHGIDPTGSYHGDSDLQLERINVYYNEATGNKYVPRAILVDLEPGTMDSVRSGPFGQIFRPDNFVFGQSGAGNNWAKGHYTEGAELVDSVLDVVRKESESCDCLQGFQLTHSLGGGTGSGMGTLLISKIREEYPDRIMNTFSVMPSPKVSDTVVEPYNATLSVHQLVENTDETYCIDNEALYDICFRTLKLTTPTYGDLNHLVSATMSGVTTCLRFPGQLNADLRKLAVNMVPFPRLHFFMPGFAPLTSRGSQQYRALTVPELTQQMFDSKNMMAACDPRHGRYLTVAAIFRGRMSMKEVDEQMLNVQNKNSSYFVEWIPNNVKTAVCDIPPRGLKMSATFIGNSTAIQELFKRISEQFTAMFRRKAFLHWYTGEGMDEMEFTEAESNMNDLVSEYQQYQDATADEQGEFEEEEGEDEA

COc1cccc2c(NCc3cncs3)nc(N3CCOc4ccccc43)nc12  IC50 (VCP; enzyme activity, inhibitor): 38000 ± 7000 nM
O=C(O)c1ccc(NS(=O)(=O)c2ccc(Cl)c(Cl)c2)c2ncccc12  IC50 (17-beta-hydroxysteroid dehydrogenase 13; estradiol turnover, inhibitor, LC-MS; together with: β-estradiol): 3400 nM
CS(=O)(=NC#N)c1ccccc1Nc1nc(Nc2ccnc(CO)c2)ncc1Cl (centres unmarked)  IC50 (IRAK4; cell-based): 53.2 ± 2.79 nM
Cc1cnc(-c2ccc(-c3ccc(NC(=O)Nc4c(F)cc(F)cc4F)cc3F)c3c2C(=O)NC3)[nH]1  IC50 (FER; enzyme activity, inhibitor, mobility shift; together with: ATP 1 mM): 33.5 nM
CNS(=O)(=O)c1ccccc1Nc1nc(Nc2ccc(CO)nc2)ncc1Cl  IC50 (IRAK4; cell-based): 47.2 ± 3.44 nM
Brc1ccc(Nc2nc(NCc3ccccc3)c3ccccc3n2)cc1  IC50 (VCP; enzyme activity, inhibitor): 1800 ± 400 nM
CC(=O)Nc1ccc(Nc2nc(-c3sc(N)nc3C)cs2)cc1  IC50 (Protein-lysine 6-oxidase (Homo sapiens, UniProt P28300); enzyme activity; HEK-293T conditioned media): 950 nM
CC(C)C[C@H](NC(=O)[C@H](CCc1ccccc1)NC(=O)CN1CCOCC1)C(=O)N[C@@H](Cc1ccccc1)C(=O)N[C@@H](CC(C)C)C(=O)[C@@]1(C)CO1  IC50 (Psmb10/Psmb3 (Mus musculus, UniProt O35955+Q9R1P1); proteasome subunit activity; Ba/F3 BCR-ABL1 H396P; 1 h pulse): 38.2 ± 2.03 nM
COc1cc(C(=O)c2c[nH]c3cc(-c4ccc(C(C)=O)s4)ccc23)cc(OC)c1OC  IC50 (Tubulin alpha-1B chain/TUBB2B (Bos taurus, UniProt P81947+Q6B856); tubulin polymerization, inhibitor, turbidimetric; together with: 10 µM bovine tubulin): > 20000 nM
C=C(F)C(=O)N1CCN(c2nc(OC[C@@H]3CCCN3C)nc3c2CCN(c2cccc4cccc(Cl)c24)C3)C[C@@H]1CC#N  IC50 (GTPase NRas (NRAS, Homo sapiens, UniProt P01111, C181S/C186S/G12C)): 747 nM
CC(C)(C)n1nc(-c2cnc3cc(OC4CC4)ccc3c2)c(C(N)=O)c1N  IC50 (PRKD3; binding): > 10000 nM
O=C(O)c1ccc(NS(=O)(=O)c2ccc(Cl)c(Cl)c2)cc1  IC50 (17-beta-hydroxysteroid dehydrogenase 13; inhibitor, NAD(P)H-Glo; together with: β-estradiol): 770 nM
Cc1ccccc1Nc1nc(NCc2ccccc2)c2ccccc2n1  IC50 (VCP; enzyme activity, inhibitor): 3400 ± 1500 nM
O=c1c2ccccc2[se]n1-c1ccccc1  IC50 (N-acyl-aromatic-L-amino acid amidohydrolase (carboxylate-forming) (Acy3, Mus musculus, UniProt Q91XE4); together with: NA-Tyr substrate): 1 nM and ~1 nM
CCn1c(-c2nc3ccc(C(=O)N4CCCC(N)C4)cc3n2C)cc2ccccc21 (centres unmarked)  IC50 (HTR2A (Homo sapiens, UniProt P28223); intracellular calcium, antagonist, luminescence): 5010 nM
CC(C)NC(=O)COc1cccc(-c2nc(Nc3ccc4[nH]ncc4c3)c3ccccc3n2)c1  IC50 (UGT1A9 (Homo sapiens, UniProt O60656); enzyme activity, inhibitor; recombinant UGT microsomes; together with: niflumic acid): 861 nM
N=C(N)c1ccc(-c2ccc(-c3ccc(C(=N)N)cc3)o2)cc1  IC50 (F10 (Homo sapiens, UniProt P00742); enzyme activity, inhibitor): 57000 ± 10000 nM
Clc1ccc(-c2nc(NCc3ccccc3)c3ccccc3n2)cc1  IC50 (VCP; enzyme activity, inhibitor): 5500 ± 1900 nM
COc1c(Cl)cccc1Nc1c(-c2ccncc2OC[C@@H]2COCCO2)[nH]c2c1C(=O)NCC2  IC50 (PRKD3; kinase activity, inhibitor, TR-FRET; median value, together with: ATP 2 mM): 340 nM
Cc1c(C)c2c(c(C)c1O)CCC(C)(COc1ccc(CC3SC(=O)NC3=O)cc1)O2 (centres unmarked)  IC50 (Gq heterotrimer (Gαq Gβ1γ2); 20 min, pH 7.4, M1 receptor membranes, together with: carbachol 50 µM): ~31700 nM
Fc1ccc(-c2nc[nH]c2-c2ccncc2)cc1  IC50 (TGFBR2 (Homo sapiens, UniProt P37173); inhibitor): 3230 ± 542 nM
c1ccc(CNc2nc(-c3ccccc3)nc3ccccc23)cc1  IC50 (VCP; enzyme activity, inhibitor): 4200 ± 2300 nM
CC[C@@H]1[C@H](F)C(=O)N[C@@H]1COc1nccc2cc(C(N)=O)c(OC)cc12  IC50 (FER; ATP probe binding, KiNativ profiling, measured: Lys1 probe site; THP-1 cell lysate): > 5000 nM
CN(c1ccccc1)c1nc(NCc2ccccc2)c2ccccc2n1  IC50 (VCP; enzyme activity, inhibitor): > 30000 nM
Cn1cc2c(C(=O)O)ccc(NS(=O)(=O)c3ccc(OCC4CCC4)c(Cl)c3)c2n1  IC50 (17-beta-hydroxysteroid dehydrogenase 13; estradiol turnover, inhibitor, LC-MS; together with: β-estradiol): 280 nM
N#CSc1cc(SC#N)c(N)nc1N  IC50 (Ubiquitin thioesterase otulin (OTULIN, Homo sapiens, UniProt Q96BN8); deubiquitinase activity, inhibitor, MALDI-TOF DUB; 30 °C, 35 min pre-incubation): 4610 nM
O=C1N[C@H](c2cncc(C#Cc3ccccc3)c2)[C@@H](c2ccccc2Cl)O1  IC50 (Metabotropic glutamate receptor 5 (Macaca mulatta, UniProt A0ACM8QRY8); receptor occupancy, PET; rhesus monkey, total plasma concentration): 66.2 nM
COc1c(O)c(-c2coc(C)n2)nc(C(=O)O)c1SC  IC50 (angiotensin-converting enzyme; enzyme activity, inhibitor): 326 ± 70 nM
COc1ccccc1Nc1nc(NCc2ccccc2)c2ccccc2n1  IC50 (VCP; enzyme activity, inhibitor): 2200 ± 900 nM
CC[C@H](C)[C@H](NC(=O)[C@H](CS)NC(=O)[C@H](CCC(=O)O)NC(=O)[C@H](C)NC(=O)[C@@H](NC(=O)[C@@H](N)CCCNC(=N)N)[C@@H](C)CC)C(=O)N[C@@H](CC(C)C)C(=O)NCC(=O)N[C@@H](CCSC)C(=O)O  IC50 (HLA class I histocompatibility antigen, A alpha chain, allele A*30:02 (Homo sapiens, UniProt P04439); binding, competitor, radioligand competition; two days, room temperature, HLA-A*30:02): 13000 nM
Cc1cccc(-c2nc(NCc3ccccc3)c3ccccc3n2)c1  IC50 (VCP; enzyme activity, inhibitor): 4200 ± 200 nM
C=CC(=O)Nc1cc(Nc2nccc(-c3cn(C)c4ccccc34)n2)c(OC)cc1N(C)CCN(C)C  IC50 (ABCB1 (Homo sapiens, UniProt P08183); basic static model; ABCB1 inhibition): no inhibition

Repeated from above:
CCn1c(-c2nc3ccc(C(=O)N4CCCC(N)C4)cc3n2C)cc2ccccc21 (centres unmarked)  IC50 (HTR2A (Homo sapiens, UniProt P28223); intracellular calcium, antagonist, luminescence): 5010 nM
CC(C)NC(=O)COc1cccc(-c2nc(Nc3ccc4[nH]ncc4c3)c3ccccc3n2)c1  IC50 (UGT1A9 (Homo sapiens, UniProt O60656); enzyme activity, inhibitor; recombinant UGT microsomes; together with: niflumic acid): 861 nM
N=C(N)c1ccc(-c2ccc(-c3ccc(C(=N)N)cc3)o2)cc1  IC50 (F10 (Homo sapiens, UniProt P00742); enzyme activity, inhibitor): 57000 ± 10000 nM
Clc1ccc(-c2nc(NCc3ccccc3)c3ccccc3n2)cc1  IC50 (VCP; enzyme activity, inhibitor): 5500 ± 1900 nM
COc1c(Cl)cccc1Nc1c(-c2ccncc2OC[C@@H]2COCCO2)[nH]c2c1C(=O)NCC2  IC50 (PRKD3; kinase activity, inhibitor, TR-FRET; median value, together with: ATP 2 mM): 340 nM
